Published values collected from several papers.
Numbered parts are unrelated; each lists some results of a single study.
UniProt Q04912, sequence (whole entry, looked up): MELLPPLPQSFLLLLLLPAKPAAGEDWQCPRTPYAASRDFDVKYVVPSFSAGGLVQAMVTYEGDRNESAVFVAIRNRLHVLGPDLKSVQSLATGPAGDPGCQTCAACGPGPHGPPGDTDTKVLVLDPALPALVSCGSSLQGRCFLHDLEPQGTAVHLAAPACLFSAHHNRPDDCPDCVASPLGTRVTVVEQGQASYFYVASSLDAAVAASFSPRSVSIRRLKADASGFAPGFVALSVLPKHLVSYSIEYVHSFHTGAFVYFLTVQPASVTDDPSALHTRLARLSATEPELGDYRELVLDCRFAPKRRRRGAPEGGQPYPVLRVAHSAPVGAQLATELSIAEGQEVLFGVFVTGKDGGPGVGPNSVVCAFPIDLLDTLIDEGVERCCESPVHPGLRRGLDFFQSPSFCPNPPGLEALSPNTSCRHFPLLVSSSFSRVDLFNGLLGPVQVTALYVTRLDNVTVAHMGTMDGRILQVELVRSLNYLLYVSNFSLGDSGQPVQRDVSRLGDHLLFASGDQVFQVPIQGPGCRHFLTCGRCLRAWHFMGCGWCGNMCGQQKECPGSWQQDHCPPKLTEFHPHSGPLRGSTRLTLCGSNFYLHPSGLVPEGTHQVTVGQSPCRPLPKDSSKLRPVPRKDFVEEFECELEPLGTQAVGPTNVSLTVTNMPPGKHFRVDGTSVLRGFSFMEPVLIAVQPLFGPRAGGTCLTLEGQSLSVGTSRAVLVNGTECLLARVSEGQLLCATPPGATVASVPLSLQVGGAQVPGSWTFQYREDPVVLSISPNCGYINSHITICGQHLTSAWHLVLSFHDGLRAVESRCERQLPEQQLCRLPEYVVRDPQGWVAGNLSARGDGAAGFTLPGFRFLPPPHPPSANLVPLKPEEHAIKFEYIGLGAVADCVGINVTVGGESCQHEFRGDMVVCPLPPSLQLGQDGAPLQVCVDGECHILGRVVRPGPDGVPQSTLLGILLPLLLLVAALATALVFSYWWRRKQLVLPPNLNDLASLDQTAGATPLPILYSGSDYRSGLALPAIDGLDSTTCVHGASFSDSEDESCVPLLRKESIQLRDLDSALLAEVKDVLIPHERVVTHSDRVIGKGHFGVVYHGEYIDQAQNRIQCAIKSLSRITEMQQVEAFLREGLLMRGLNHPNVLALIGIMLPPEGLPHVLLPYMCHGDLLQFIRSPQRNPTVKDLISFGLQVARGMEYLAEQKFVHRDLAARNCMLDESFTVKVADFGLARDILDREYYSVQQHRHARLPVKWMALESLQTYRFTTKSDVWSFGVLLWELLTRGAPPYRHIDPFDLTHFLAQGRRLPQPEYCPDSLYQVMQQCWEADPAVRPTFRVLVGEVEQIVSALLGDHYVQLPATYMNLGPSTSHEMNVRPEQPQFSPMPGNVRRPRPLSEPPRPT

Block 1 — method: RNA Bind-n-Seq; molecule type: RNA; medium: in vitro; tested at: 20 nM; notes: 6-mer, flanks averaged, single round; together with: 150 mM KCl; baseline: input library; direction: higher = stronger binding
Target: TAR DNA-binding protein 43, full length, His tag (TARDBP, Homo sapiens, UniProt Q13148, residues 1-414)
| Sequence | 6-mer enrichment (R) |
| --- | --- |
| GUUGCG | 1.44 |
| CACCGU | 0.662 |
| CGAACG | 0.896 |
| CGGGCC | 1.95 |
| GCUAUA | 0.653 |
| CGAAAU | 0.595 |
| GAGCAG | 1.57 |
| CACCUC | 0.618 |

Block 2 — method: protein-binding microarray; molecule type: hairpin DNA; medium: in vitro; tested at: not given; baseline: not given; direction: higher = stronger binding
Target: GDNF-inducible zinc finger protein 1, full length (GZF1, Homo sapiens, UniProt Q9H116, residues 1-711)
UniProt Q9H116, sequence (whole entry, looked up): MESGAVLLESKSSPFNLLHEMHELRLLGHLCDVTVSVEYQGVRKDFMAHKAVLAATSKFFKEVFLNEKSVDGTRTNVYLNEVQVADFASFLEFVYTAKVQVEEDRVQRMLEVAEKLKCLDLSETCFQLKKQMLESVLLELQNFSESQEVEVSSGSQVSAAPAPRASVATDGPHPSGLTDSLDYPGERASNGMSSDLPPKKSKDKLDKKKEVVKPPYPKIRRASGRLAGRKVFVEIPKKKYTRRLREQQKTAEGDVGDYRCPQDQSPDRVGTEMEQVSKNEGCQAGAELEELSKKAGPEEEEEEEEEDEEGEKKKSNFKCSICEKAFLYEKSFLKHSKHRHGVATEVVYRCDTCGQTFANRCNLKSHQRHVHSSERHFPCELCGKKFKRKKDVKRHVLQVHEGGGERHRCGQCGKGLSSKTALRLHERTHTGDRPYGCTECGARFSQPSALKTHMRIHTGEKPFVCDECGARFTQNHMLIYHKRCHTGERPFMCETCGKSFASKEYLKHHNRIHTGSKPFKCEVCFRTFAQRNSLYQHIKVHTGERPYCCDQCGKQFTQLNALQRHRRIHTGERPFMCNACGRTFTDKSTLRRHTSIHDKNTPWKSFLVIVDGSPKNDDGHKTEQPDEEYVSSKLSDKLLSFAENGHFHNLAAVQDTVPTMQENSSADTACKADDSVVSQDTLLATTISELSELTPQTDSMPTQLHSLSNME
Notes: whole hairpin DNA, median over replicate spots
| Sequence | median fluorescence [a.u.] |
| --- | --- |
| GAGGCCATTGCGGTAATGCCTCCTGGCATTACCGCAATGGCCTCACACTC | 627 |
| GAGGCCATTACGTTAATGCCTCCTGGCATTAACGTAATGGCCTCACACTC | 380 |
| GAGGCCCTTACGGTAATGCCTCCTGGCATTACCGTAAGGGCCTCACACTC (5mC at 7) | 616 |
| GAGGCCATTTCGGTAATGCCTCCTGGCATTACCGAAATGGCCTCACACTC | 468 |
| GAGGCCATTACCGTAATGCCTCCTGGCATTACGGTAATGGCCTCACACTC (5mC at 32) | 715 |
| GAGGCCATTCGGGTAATGCCTCCTGGCATTACCCGAATGGCCTCACACTC (5mC at 10 34) | 443 |
| GAGGCCAGTACGGTAATGCCTCCTGGCATTACCGTACTGGCCTCACACTC (5mC at 37) | 752 |
| GAGGCCATTACGGTAATGCCTCCTGGCATTACCGTAATGGCCTCACACTC | 714 |

Block 3 — method: protein binding microarray; molecule type: double-stranded DNA, one strand shown; medium: in vitro; tested at: not given; baseline: not given; direction: higher = stronger binding
Target: Histone acetyltransferase KAT6A, both winged helices, GST fusion (KAT6A, Homo sapiens, UniProt Q92794, residues 1-181)
Notes: 8-mer, flanks averaged, mean of 2 arrays, mostly near background
Residues (chain): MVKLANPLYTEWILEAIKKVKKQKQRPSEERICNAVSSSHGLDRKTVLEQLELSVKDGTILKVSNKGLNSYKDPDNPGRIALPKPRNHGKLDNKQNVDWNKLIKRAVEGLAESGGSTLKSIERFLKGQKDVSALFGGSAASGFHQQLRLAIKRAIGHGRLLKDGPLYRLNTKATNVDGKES
| Sequence | E-score |
| --- | --- |
| TAACAGCA | -0.0245 |
| TCCCTCGA | -0.0749 |
| GCAATGTA | -0.023 |
| CGTAATAC | 0.0894 |
| AACGAATC | -0.0462 |
| AGTAAAAG | -0.049 |
| GGAGGAAC | 0.0384 |
| CTCACAGA | -0.0335 |

Further values, each from its own experiment
| Structure (SMILES) | target | assay | setting | measurement | result |
| --- | --- | --- | --- | --- | --- |
| C[C@@H](c1cccc(C#N)c1)n1cc(Cl)cc(C(N)=O)c1=N | Macrophage-stimulating protein receptor (MST1R, Homo sapiens, UniProt Q04912) | cell-free assay, competition with immobilised ligand | 1 µM | remaining binding | 100% |

A few entries again (block 1):
| Sequence | 6-mer enrichment (R) |
| --- | --- |
| CGGGCC | 1.95 |
| GUUGCG | 1.44 |
| CGAAAU | 0.595 |
| CACCUC | 0.618 |
